{"data": "Results of several laboratories", "note": "Numbered parts are unrelated; each lists some results of a single study. Changes are numbered by the printed parent chain."}
{"data": "Series 1", "target": "CCND1, cyclin fold, Cln2 fusion (human)", "technique": "yeast growth competition, sequencing", "matrix": "yeast", "notes": "strong parent motif", "reference": "not given", "direction": "higher = stronger binding", "starting sequence": "SCAPER docking peptide (human); SNARRSLNFGGST"}
{"Variant": "S1I", "normalised enrichment score": -0.129}
{"Variant": "L7R", "normalised enrichment score": -0.123}
{"Variant": "A3C", "normalised enrichment score": 0.294}
{"Variant": "S6K", "normalised enrichment score": 3.59}
{"Variant": "A3V", "normalised enrichment score": 0.38}
{"data": "Series 2", "target": "Centromere-binding protein 1, full length, His-tagged (CBF1, Saccharomyces cerevisiae, UniProt P17106, residues 1-351)", "technique": "competition protein-binding microarray", "form": "double-stranded DNA, one strand shown", "matrix": "in vitro", "tested at": "2 µM", "notes": "whole 60-bp probe, lowest competitor level", "together with": "Pho4 competitor, 0.05 µM", "direction": "higher = stronger binding", "constant ends, left off below": "… GTCTTGATTCGCTTGACGCTGCTG", "sequence of UniProt P17106 (whole entry, looked up)": "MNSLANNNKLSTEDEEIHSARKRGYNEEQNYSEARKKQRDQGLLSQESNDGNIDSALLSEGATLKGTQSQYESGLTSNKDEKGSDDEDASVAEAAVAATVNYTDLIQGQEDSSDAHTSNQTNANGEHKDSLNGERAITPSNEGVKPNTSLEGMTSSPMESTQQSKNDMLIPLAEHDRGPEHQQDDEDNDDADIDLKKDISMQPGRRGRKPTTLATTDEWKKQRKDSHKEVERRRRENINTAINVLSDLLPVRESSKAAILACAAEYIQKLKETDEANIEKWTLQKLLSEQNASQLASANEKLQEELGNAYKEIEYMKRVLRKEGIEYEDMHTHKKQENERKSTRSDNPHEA"}
{"Sequence": "ATTCCTACTTTCCGTCACGTGGGACGCCCGTTTAGG", "fluorescence intensity [a.u.]": 2680}
{"Sequence": "CGGGGTTAAGTTTGCTCCGTGGGTGGCTTGCAGCAG", "fluorescence intensity [a.u.]": 59.2}
{"Sequence": "CGTCCTAGTGATTGTCACCTCACTTCCATGAGGAAG", "fluorescence intensity [a.u.]": 81.7}
{"Sequence": "GTAGCAAATGCACTGCATGTGTTTCTGTGGCGGGTA", "fluorescence intensity [a.u.]": 90.4}
{"Sequence": "CATACCCAACCTTGTTGAGTGGGTGAAGATATTTGT", "fluorescence intensity [a.u.]": 75.7}
{"Sequence": "CAGCAAGTGTCCCAGCATGTGATGCTCACCAATCAG", "fluorescence intensity [a.u.]": 349}
{"Sequence": "TTTTCTAAGCTTTGTCGCGTGAGATCGCTTCTCATT", "fluorescence intensity [a.u.]": 97}
{"Sequence": "CTTCTGTAAATTTGGCCCGTGGGTGGACGCGCCCCG", "fluorescence intensity [a.u.]": 62.6}
{"data": "Series 3", "target": "Sal-like protein 4, full length isoform A (SALL4, Homo sapiens, UniProt Q9UJQ4, residues 1-1053)", "technique": "universal PBM", "form": "double-stranded DNA, one strand shown", "matrix": "in vitro", "tested at": "600 nM", "notes": "8-mer, flanks averaged, mean of replicates", "direction": "higher = stronger binding", "sequence of UniProt Q9UJQ4 (whole entry, looked up)": "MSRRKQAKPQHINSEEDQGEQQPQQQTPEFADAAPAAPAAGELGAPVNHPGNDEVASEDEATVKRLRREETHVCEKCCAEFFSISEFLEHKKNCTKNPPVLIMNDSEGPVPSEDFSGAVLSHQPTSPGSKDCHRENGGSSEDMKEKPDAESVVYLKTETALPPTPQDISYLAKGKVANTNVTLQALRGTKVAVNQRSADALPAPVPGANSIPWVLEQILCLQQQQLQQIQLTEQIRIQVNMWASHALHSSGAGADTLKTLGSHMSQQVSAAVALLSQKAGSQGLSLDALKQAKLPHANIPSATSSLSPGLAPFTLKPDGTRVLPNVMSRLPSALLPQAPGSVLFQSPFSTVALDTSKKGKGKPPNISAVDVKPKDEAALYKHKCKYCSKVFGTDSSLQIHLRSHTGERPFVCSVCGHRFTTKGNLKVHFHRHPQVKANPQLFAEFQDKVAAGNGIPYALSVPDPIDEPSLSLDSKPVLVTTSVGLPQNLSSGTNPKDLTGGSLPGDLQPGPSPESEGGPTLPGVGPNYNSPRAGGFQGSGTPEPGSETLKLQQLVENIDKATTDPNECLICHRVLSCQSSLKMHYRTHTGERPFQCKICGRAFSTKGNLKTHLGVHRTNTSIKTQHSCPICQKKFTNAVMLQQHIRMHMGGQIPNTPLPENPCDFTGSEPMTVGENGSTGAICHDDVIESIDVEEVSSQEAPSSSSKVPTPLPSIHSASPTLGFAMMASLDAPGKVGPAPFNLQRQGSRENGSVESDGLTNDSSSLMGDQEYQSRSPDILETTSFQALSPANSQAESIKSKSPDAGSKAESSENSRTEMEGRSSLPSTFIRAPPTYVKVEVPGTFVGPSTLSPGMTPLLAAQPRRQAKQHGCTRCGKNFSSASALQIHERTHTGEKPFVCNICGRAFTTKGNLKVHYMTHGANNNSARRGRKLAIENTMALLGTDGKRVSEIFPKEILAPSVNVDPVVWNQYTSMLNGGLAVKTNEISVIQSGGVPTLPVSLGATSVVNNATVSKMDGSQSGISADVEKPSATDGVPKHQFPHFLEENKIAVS"}
{"Sequence": "AAGAGTCC", "E-score": -0.194}
{"Sequence": "CGCGGAGA", "E-score": -0.197}
{"Sequence": "CGATTCCG", "E-score": -0.192}
{"Sequence": "CAACCAAC", "E-score": -0.134}
{"Sequence": "AACTGCAA", "E-score": -0.0152}
{"Sequence": "GTATTAAC", "E-score": 0.195}
{"Sequence": "CGTAGGGC", "E-score": -0.196}
{"data": "Further values, each from its own experiment"}
{"Substance": "PhoQ, residues 284 288 289 292 302 303 SSCLAV", "target": "PhoP, residues 12 14 15 18 19 SMASL (Escherichia coli, UniProt P23836)", "test": "Sort-seq, refers to: YFP reporter", "test system": "E. coli", "conditions": "PhoQ-PhoP variant library, together with: 10 µM Mg2+", "scale": "reference: high Mg2+ state, higher = stronger signaling", "endpoint": "fold induction", "value": 14.9}
{"note": "Some of these lines once more (further values, each from its own experiment):"}
{"Substance": "PhoQ, residues 284 288 289 292 302 303 SSCLAV", "target": "PhoP, residues 12 14 15 18 19 SMASL (Escherichia coli, UniProt P23836)", "test": "Sort-seq, refers to: YFP reporter", "test system": "E. coli", "conditions": "PhoQ-PhoP variant library, together with: 10 µM Mg2+", "scale": "reference: high Mg2+ state, higher = stronger signaling", "endpoint": "fold induction", "value": 14.9}
